Published values from different studies.
A part holds a random share of what one study measured.
Sequence of UniProt Q96QT4 (whole entry, looked up): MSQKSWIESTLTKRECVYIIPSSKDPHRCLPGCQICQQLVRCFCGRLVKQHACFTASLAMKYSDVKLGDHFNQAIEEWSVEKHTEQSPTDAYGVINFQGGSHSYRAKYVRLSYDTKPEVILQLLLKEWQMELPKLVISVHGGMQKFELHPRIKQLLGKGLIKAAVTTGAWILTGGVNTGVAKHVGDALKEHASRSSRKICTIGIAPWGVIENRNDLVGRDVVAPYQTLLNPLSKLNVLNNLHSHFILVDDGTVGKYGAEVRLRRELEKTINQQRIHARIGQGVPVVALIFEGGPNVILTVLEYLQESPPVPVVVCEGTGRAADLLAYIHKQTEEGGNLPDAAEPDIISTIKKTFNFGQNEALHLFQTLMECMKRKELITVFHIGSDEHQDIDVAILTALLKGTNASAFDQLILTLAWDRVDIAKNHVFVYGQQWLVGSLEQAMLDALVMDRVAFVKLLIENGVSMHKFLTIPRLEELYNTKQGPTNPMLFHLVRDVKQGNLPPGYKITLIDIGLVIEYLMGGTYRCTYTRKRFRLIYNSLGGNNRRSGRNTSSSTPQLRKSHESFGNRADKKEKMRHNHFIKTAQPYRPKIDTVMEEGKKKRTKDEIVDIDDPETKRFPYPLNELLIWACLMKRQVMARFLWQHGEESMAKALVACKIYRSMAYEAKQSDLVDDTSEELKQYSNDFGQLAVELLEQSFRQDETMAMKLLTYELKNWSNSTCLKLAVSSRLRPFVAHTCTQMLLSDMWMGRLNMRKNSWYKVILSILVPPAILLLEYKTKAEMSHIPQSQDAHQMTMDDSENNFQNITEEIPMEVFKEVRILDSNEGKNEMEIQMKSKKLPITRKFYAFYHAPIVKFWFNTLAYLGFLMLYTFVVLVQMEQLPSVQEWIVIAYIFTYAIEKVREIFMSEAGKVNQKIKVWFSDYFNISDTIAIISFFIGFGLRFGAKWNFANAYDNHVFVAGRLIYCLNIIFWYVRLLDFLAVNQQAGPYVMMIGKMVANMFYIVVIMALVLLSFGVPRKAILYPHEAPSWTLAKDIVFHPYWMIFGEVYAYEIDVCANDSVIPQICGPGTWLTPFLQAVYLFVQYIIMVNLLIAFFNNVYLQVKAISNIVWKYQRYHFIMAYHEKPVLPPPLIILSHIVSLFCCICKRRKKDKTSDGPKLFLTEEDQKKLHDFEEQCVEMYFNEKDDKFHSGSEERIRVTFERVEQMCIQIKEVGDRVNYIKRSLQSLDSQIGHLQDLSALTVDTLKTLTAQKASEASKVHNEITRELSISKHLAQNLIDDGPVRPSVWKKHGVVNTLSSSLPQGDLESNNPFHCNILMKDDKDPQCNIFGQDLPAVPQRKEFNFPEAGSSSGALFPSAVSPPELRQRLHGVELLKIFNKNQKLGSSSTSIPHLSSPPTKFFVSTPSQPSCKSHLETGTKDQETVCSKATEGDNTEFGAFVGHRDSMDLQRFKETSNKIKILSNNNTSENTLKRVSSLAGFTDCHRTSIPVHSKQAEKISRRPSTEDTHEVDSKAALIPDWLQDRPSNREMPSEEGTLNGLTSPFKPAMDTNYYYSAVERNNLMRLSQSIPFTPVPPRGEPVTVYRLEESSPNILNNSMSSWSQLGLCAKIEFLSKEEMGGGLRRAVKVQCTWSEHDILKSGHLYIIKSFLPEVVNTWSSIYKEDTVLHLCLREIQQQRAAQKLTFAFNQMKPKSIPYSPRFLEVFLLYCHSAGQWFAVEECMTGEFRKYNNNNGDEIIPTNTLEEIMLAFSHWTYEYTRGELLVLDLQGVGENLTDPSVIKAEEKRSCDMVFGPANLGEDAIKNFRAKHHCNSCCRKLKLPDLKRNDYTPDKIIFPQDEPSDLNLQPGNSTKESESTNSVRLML
Sequence of UniProt Q13237 (whole entry, looked up): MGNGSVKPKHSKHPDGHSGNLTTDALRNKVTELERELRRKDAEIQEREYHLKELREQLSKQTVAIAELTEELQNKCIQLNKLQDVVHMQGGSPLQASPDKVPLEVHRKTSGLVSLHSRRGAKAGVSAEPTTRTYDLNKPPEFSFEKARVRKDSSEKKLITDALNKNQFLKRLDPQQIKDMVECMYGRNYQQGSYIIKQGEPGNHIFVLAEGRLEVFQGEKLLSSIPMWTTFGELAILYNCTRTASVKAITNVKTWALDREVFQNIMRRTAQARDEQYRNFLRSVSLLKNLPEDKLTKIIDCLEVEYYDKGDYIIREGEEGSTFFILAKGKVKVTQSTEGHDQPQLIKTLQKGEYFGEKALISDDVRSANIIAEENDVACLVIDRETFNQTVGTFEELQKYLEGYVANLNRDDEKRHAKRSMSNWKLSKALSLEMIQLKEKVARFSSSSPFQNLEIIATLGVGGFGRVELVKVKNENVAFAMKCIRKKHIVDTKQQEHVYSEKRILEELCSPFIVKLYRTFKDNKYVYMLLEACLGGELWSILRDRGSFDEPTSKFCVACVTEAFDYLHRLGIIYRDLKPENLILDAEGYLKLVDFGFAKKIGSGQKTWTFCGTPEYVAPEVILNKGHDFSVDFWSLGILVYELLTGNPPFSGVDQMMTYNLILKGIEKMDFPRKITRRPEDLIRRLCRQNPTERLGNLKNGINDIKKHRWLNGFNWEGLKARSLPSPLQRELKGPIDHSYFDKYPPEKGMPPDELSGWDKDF
Sequence of UniProt P47898 (whole entry, looked up): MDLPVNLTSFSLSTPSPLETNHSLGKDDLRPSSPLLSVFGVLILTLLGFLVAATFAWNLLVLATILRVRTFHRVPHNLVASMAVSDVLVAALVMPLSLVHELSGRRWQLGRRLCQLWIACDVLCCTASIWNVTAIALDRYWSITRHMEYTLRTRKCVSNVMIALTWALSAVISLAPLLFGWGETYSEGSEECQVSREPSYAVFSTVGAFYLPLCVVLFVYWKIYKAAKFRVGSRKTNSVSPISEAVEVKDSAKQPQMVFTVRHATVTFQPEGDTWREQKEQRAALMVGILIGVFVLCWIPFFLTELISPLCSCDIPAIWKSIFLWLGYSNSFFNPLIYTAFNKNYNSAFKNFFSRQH
Sequence of UniProt O75716 (whole entry, looked up): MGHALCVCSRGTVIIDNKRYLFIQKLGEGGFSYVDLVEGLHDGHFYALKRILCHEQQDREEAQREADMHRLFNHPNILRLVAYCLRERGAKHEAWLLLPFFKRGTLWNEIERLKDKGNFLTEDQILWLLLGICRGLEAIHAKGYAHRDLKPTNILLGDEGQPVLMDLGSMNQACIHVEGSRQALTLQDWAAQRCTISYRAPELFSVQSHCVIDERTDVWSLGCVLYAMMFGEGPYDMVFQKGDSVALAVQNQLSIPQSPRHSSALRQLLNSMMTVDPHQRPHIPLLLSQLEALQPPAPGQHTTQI

Sample 1
Target: Calcium/calmodulin-dependent protein kinase type II subunit alpha (CAMK2A, Homo sapiens, UniProt Q9UQM7)
Sequence of UniProt Q9UQM7 (whole entry, looked up): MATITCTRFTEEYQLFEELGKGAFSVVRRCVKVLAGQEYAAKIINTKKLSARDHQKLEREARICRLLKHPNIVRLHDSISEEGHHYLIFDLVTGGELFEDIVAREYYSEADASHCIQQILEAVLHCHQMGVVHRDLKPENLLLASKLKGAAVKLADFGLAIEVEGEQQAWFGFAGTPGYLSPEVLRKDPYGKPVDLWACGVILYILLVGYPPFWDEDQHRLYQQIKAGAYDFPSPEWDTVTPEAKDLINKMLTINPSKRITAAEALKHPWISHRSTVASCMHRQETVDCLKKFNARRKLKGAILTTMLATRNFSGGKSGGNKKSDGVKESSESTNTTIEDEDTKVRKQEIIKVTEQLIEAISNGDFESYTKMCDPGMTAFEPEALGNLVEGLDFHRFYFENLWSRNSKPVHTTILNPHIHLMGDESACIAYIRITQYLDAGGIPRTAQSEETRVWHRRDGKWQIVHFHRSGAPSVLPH
Observed: enzyme activity
Action: inhibitor
Concentration: 10 µM
| SMILES | inhibition [%] |
| --- | --- |
| CCCCCC/C(C=O)=C\c1ccccc1 | -20 |
| CC(C)C[C@H](NC(=O)CNC(=O)c1cc(Cl)ccc1Cl)B(O)O | -5 |
| Cn1c(=O)c2c(ncn2CC(O)CO)n(C)c1=O (stereo not drawn) | -8 |
| CCCCCCCCC=O | -8 |
| Cc1ncc([N+](=O)[O-])n1CC(C)O (stereo not drawn) | -3 |

Sample 2
Target: Diamine acetyltransferase 1 (Homo sapiens, UniProt P21673)
Action: inhibitor
Concentration: 10 µM
Baseline: control
Construct (P21673 1-171): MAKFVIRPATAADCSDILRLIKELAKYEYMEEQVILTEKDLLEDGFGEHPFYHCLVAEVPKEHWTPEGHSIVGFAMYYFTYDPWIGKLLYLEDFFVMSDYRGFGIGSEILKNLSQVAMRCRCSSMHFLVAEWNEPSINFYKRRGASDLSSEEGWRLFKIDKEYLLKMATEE
| SMILES | remaining activity [%] |
| --- | --- |
| CCCCCC(C)O (stereo not drawn) | 105 |
| CCCCCCCCCCCCCCCCCCCCC(=O)O | 95.9 |
| O=c1c(-c2ccc(O)cc2)coc2c([C@@H]3O[C@H](CO)[C@@H](O)[C@H](O)[C@H]3O)c(O)ccc12 | 86.5 |
| CC[C@H](C)[C@H](N)C(=O)O | 82.6 |

Sample 3
Target: Platelet-derived growth factor receptor alpha (PDGFRA, Homo sapiens, UniProt P16234)
Sequence of UniProt P16234 (whole entry, looked up): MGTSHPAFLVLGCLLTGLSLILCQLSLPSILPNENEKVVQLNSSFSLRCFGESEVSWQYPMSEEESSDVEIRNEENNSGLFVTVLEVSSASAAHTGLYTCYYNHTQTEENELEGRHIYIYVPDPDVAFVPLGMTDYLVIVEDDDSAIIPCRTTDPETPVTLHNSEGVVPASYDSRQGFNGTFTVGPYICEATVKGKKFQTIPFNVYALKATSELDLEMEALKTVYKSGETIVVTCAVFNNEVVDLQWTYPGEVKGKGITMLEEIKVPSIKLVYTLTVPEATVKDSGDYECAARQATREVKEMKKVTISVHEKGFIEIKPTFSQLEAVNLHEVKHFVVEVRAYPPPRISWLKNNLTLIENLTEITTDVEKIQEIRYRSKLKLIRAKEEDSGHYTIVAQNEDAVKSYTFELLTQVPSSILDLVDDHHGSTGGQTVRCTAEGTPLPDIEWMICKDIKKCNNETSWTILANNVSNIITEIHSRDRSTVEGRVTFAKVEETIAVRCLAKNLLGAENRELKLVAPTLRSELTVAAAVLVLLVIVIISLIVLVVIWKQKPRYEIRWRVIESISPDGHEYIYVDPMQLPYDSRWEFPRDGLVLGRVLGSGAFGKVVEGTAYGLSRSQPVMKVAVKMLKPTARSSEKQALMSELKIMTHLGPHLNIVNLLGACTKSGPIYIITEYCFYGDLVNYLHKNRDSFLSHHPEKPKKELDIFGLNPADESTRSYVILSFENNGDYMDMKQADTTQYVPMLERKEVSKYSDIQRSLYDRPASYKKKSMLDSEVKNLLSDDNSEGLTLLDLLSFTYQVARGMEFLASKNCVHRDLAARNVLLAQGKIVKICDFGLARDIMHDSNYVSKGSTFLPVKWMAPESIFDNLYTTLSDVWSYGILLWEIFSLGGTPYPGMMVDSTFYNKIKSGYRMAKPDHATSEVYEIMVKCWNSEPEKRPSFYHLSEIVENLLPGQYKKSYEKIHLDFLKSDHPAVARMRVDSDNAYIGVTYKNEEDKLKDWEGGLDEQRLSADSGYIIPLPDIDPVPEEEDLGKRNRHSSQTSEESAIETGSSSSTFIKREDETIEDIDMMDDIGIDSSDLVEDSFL
Observed: enzyme activity
Action: inhibitor
Concentration: 0.5 µM
Baseline: control
| Structure (SMILES) | remaining activity [%] |
| --- | --- |
| CN(C)c1ccc(C=C2C(=O)Nc3ccccc32)cc1 | 79.9 |
| Cn1sc(=O)n(Cc2ccccc2)c1=O | 84.1 |
| COc1cc2ncnc(Nc3ccc(Oc4ccccc4)cc3)c2cc1OC | 88.8 |
| CCOC(=O)c1c(C)[nH]c(/C=C2\C(=O)Nc3ccccc32)c1C | 82.8 |
| O=C(Nc1cccc(Nc2cc(Nc3cccc(C(F)(F)F)c3)ncn2)c1)C1CC1 | 86.4 |
| O=C(O)c1ccc2c3c1cccc3c(=O)n1c3ccccc3nc21 | 94.4 |
| Nc1[nH]nc2nc3ccccc3nc12 | 103 |
| COc1ccc(C(=O)Nc2sc3c(c2C(N)=O)CCCC3)cc1OC | 96.4 |
| O=C(CCCc1ccc(-c2ccccc2F)cc1)Nc1ccc(O)cc1 | 96.5 |
| CO[C@H]1C[C@@H]2CC[C@@H](C)[C@@](O)(O2)C(=O)C(=O)N2CCCC[C@H]2C(=O)O[C@H]([C@H](C)C[C@@H]2CC[C@@H](O)[C@H](OC)C2)CC(=O)[C@H](C)/C=C(\C)[C@@H](O)[C@@H](OC)C(=O)[C@H](C)C[C@H](C)/C=C/C=C/C=C/1C | 95.1 |
| COc1ccc(OC)c2c(=S)c3ccccc3[nH]c12 | 85.6 |
| Cc1cccc(-c2[nH]c(C(C)(C)C)nc2-c2ccc3c(c2)OCO3)n1 | 94.1 |
| N#CC(C#N)=C(N)/C(C#N)=C/c1ccc(O)cc1 | 97.8 |
| C#Cc1cccc(Nc2ncnc3cc(OCCOC)c(OCCOC)cc23)c1 | 84.4 |

Sample 4
SMILES: CC(C)S(=O)(=O)c1ccc2nccc(Nc3ccc4sc(C5CCCC5)nc4c3)c2c1.Cl
Observed: kinase activity
Action: inhibitor
Concentration: 1 µM
| target | remaining activity |
| --- | --- |
| STK16 (Homo sapiens, UniProt O75716) | 91% |
| JAK2 (Homo sapiens, UniProt O60674) | 97% |
| TRPM7 (Homo sapiens, UniProt Q96QT4) | 99% |
| DDR1 (Homo sapiens, UniProt Q08345) | 83% |
| RPS6KB2 (Homo sapiens, UniProt Q9UBS0) | 98% |
| PRKG2 (Homo sapiens, UniProt Q13237) | 119% |

Single results of other studies
| Structure (SMILES) | target | assay | setting | quantity | value |
| --- | --- | --- | --- | --- | --- |
| CS(=O)(=O)NCC[C@H](NC(=O)c1cncc2c1cnn2-c1ccc(F)cc1)c1ccnc(S(C)(=O)=O)c1 | 5-hydroxytryptamine receptor 5A (HTR5A, Homo sapiens, UniProt P47898) | ligand displacement | 10 µM | inhibition | -14.4% |
